Assay results collected from several papers.
Each line is one published result; not all experiments were run side by side. Numbers after ± are the reported error.
Target: Sigma non-opioid intracellular receptor 1 (SIGMAR1, Homo sapiens, UniProt Q99720)
Sequence of UniProt Q99720 (whole entry, looked up): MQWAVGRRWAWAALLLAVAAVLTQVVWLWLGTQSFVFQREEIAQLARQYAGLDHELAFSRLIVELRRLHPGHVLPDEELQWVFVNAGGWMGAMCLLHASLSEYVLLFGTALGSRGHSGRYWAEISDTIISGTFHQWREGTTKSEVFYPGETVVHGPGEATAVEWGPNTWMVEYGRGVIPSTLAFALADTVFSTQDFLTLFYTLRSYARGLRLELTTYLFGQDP

| SMILES | assay | system | conditions | measurement | result |
| --- | --- | --- | --- | --- | --- |
| OC1Cc2ccccc2CC1N1CCC2(C=Cc3ccc(F)cc32)CC1 (racemic) | displacement, radioligand binding | HEK293 | together with: [3H](+)-pentazocine | Ki | 0.0042 ± 0.0001 µM |
| OC(CCN1CCCCC1)(c1ccccc1)C1CCCCC1 (centres unmarked) | binding | – | – | Ki | 0.106 µM |
| CCCC[C@@H](NC(=O)[C@@H](N)Cc1c(C)cc(O)cc1C)C(=O)NCC(=O)N[C@@H](Cc1ccc(F)cc1)C(=O)N(C)CCC[C@@]1(c2ccc(F)cc2)OCc2cc(C#N)ccc21 | binding | – | – | Ki | 1.9 µM |
| OC1Cc2ccccc2CC1N1CCC2(CC1)C(Br)=Cc1ccccc12 (racemic) | displacement, radioligand binding | HEK293 | together with: [3H](+)-pentazocine | Ki | 0.5 ± 0.63 µM |
| COc1ccc(N=Nc2ccc3[nH]cc(CCN(C)C)c3c2)cc1 | binding, radioligand binding | – | ambient light | Ki | 1.08 µM |
| CCCC[C@@H](NC(=O)[C@@H](N)Cc1ccc(O)cc1)C(=O)NCC(=O)N[C@@H](Cc1ccc(F)cc1)C(=O)N(C)CCC[C@@]1(c2ccc(F)cc2)OCc2cc(C#N)ccc21 | binding | – | – | Ki | 0.047 µM |
| CCN1CCCC1CNC(=O)c1cc(S(=O)(=O)CC)c(N)cc1OC (centres unmarked) | binding | – | – | Ki | 4.42 µM |
| COc1cc(Nc2ncc(F)c(Nc3ccc4c(n3)NC(=O)C(C)(C)O4)n2)cc(OC)c1OC | – | – | – | IC50 | > 10 µM |

Repeated from above:
| SMILES | assay | system | conditions | measurement | result |
| --- | --- | --- | --- | --- | --- |
| OC1Cc2ccccc2CC1N1CCC2(CC1)C(Br)=Cc1ccccc12 (racemic) | displacement, radioligand binding | HEK293 | together with: [3H](+)-pentazocine | Ki | 0.5 ± 0.63 µM |
